Experimental data from different studies.
Target: Fibroblast growth factor receptor 4 (FGFR4, Homo sapiens, UniProt P22455)
Chain of UniProt P22455 (whole entry, looked up): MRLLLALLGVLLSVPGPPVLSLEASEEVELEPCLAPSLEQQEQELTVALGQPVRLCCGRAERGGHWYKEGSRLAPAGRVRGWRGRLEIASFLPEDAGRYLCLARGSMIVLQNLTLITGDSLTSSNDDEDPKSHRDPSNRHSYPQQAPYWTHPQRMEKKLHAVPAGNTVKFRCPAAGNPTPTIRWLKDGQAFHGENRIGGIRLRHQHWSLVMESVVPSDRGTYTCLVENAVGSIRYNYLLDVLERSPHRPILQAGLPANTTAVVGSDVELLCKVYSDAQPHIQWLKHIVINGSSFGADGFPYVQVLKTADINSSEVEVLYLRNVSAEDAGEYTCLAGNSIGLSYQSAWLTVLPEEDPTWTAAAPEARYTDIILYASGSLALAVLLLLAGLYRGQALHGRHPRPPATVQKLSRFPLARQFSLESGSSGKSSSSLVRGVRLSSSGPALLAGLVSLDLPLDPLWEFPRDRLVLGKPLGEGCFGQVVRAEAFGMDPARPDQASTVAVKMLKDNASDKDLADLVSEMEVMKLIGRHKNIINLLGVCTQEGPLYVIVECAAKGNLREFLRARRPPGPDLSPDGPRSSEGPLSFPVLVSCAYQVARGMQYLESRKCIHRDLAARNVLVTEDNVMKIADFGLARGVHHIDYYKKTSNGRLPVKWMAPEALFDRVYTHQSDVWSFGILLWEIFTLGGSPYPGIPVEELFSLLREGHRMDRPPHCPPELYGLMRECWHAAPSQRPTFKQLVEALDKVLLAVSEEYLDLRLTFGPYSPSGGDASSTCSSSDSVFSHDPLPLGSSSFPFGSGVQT

For `CCN1C(=O)N(c2cc(NC(=O)c3cccc(C(F)(F)F)c3)ccc2C)Cc2cnc(Nc3ccc(C)nc3)nc21`, the IC50 was less than 0.001 µM (enzyme activity, inhibitor, radiometric).
For `COc1cc(OC)cc(C(O)c2c[nH]c3ncc(C(F)(F)F)cc23)c1` (stereo not drawn), the IC50 was greater than 3 µM (enzyme activity, inhibitor).
The IC50 of `O=C1Nc2ccc(-c3ccc(C(=O)N4CCCC4)cc3)cc2/C1=C/c1ccc(N2CCNCC2)cc1` is reported as 13.8 µM (enzyme activity, inhibitor).
With `Cc1nc2ccc(Cc3c[nH]c4ncc(C(F)(F)F)cc34)cc2o1` the IC50 was greater than 3 µM (enzyme activity, inhibitor).
With `CN1CCN(C(=O)c2ccc(-c3ccc4c(c3)/C(=C/c3ccc(N5CCOCC5)cc3)C(=O)N4)cc2)CC1` the IC50 was 18.6 µM (enzyme activity, inhibitor).
The IC50 of `Cc1ccc2oc(-c3c4c(N)n[nH]c(=O)c4nn3-c3ccc(NC(=O)/C=C/CN(C)C)cc3)c(C)c2c1` is reported as greater than 1 µM (enzyme activity, inhibitor, ELISA).
For `COc1cc2nccc(Oc3ccc(NC(=O)NC4CC4)c(Cl)c3)c2cc1C(N)=O`, the IC50 was greater than 0.1 µM (enzyme activity, inhibitor).
The IC50 of `O=C1Nc2ccc(-c3ccc(-c4ccc(O)cc4)cc3)cc2/C1=C/c1ccc(N2CCNCC2)cc1` is reported as 18 µM (enzyme activity, inhibitor).
The IC50 of `C=C(C)C(=O)Nc1ccc(-c2c(-c3ccc(Oc4nccc(C)n4)cc3)c3c(N)ncnc3n2C)cc1` is reported as 31 µM (Caliper mobility shift; 30 min preincubation, added: 100 µM ATP).
